Measurements gathered from unrelated publications.
Lines come from different studies, so protocols differ. ± gives the spread as reported.
MAOA: Amine oxidase [flavin-containing] A (MAOA, Homo sapiens, UniProt P21397)
UniProt P21397, sequence (whole entry, looked up): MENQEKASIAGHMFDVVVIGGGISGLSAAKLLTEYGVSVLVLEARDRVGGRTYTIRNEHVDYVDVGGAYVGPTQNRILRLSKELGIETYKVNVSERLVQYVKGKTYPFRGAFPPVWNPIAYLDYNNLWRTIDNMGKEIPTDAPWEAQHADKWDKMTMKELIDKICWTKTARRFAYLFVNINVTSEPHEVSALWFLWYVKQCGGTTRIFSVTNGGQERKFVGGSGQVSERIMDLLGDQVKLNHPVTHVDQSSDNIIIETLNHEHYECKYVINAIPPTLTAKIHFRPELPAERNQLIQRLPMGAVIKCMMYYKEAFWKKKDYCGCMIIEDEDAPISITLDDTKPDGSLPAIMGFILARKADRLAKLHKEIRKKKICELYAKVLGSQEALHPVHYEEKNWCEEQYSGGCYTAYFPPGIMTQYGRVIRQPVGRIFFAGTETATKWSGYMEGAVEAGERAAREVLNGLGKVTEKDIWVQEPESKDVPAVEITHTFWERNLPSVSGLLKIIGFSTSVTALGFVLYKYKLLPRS
FLT3 ITD: Receptor-type tyrosine-protein kinase FLT3 (FLT3, Homo sapiens, UniProt P36888, ITD)
GSTO1: Glutathione S-transferase omega-1 (GSTO1, Homo sapiens, UniProt P78417)
UniProt P78417, sequence (whole entry, looked up): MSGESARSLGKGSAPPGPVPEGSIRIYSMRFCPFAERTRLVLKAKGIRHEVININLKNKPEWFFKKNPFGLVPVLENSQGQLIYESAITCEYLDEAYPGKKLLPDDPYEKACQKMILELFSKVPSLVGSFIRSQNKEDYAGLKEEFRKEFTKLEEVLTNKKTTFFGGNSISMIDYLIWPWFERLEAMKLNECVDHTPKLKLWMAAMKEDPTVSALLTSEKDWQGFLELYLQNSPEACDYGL
AGER: Advanced glycosylation end product-specific receptor (AGER, Homo sapiens, UniProt Q15109)
UniProt Q15109, sequence (whole entry, looked up): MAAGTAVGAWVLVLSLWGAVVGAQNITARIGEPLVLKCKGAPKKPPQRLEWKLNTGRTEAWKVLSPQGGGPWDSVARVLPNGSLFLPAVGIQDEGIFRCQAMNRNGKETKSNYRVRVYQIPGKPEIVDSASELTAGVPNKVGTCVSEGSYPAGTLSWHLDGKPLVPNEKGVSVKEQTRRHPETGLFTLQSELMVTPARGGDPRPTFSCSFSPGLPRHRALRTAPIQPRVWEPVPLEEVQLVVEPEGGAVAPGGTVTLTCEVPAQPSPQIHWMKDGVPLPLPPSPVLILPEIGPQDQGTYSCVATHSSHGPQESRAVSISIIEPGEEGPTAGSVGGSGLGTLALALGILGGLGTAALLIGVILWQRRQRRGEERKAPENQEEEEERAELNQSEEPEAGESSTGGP
Succinate dehydrogenase complex: Succinate dehydrogenase complex (Sus scrofa, UniProt A5GZW8+D0VWV4+Q007T0+Q0QF01)
UniProt A5GZW8, sequence (whole entry, looked up): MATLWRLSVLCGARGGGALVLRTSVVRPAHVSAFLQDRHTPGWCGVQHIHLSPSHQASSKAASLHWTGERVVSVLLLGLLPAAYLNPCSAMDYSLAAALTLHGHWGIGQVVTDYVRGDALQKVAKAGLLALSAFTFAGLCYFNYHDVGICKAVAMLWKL
UniProt Q007T0, sequence (whole entry, looked up): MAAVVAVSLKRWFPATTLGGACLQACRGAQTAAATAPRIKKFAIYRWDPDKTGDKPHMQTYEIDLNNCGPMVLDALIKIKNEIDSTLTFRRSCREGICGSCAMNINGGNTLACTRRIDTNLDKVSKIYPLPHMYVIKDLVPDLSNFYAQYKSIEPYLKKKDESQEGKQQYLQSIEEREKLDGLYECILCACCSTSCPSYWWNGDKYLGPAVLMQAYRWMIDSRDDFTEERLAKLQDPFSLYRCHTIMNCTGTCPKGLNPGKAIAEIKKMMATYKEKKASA
UniProt Q0QF01, sequence (whole entry, looked up): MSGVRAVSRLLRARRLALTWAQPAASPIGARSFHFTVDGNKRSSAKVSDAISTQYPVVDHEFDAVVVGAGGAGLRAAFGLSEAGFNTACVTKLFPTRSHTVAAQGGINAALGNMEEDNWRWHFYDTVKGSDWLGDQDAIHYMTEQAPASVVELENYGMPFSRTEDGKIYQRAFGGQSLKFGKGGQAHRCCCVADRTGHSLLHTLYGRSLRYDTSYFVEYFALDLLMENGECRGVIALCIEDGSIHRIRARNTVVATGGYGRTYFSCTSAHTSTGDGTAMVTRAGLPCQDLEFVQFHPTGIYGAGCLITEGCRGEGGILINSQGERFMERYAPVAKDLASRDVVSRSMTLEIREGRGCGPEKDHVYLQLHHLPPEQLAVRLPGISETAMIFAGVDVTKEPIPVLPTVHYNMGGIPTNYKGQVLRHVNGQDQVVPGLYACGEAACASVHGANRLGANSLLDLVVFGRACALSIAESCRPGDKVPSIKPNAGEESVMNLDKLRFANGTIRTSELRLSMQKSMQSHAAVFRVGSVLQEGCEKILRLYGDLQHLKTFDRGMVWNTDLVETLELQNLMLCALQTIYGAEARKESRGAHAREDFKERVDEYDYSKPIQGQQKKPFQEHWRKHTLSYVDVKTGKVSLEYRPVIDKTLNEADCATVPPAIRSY
UniProt D0VWV4, sequence (whole entry, looked up): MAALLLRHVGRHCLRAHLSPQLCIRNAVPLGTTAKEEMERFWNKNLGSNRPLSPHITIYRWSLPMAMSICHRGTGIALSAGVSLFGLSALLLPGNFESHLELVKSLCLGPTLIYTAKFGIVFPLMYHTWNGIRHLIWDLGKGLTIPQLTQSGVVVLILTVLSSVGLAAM
lecA: PA-I galactophilic lectin (lecA, Pseudomonas aeruginosa, UniProt Q05097)
UniProt Q05097, sequence (whole entry, looked up): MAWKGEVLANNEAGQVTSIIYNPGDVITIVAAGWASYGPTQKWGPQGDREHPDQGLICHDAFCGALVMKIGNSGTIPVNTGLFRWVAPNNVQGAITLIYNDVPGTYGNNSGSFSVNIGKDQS
GLO1: Lactoylglutathione lyase (GLO1, Homo sapiens, UniProt Q04760)
UniProt Q04760, sequence (whole entry, looked up): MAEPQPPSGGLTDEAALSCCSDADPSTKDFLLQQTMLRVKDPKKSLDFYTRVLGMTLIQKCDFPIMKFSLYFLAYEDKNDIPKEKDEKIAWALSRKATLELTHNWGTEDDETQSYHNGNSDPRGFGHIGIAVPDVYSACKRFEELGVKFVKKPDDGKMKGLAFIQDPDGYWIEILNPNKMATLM
UniProt Q9NXA8, sequence (whole entry, unmodified, looked up): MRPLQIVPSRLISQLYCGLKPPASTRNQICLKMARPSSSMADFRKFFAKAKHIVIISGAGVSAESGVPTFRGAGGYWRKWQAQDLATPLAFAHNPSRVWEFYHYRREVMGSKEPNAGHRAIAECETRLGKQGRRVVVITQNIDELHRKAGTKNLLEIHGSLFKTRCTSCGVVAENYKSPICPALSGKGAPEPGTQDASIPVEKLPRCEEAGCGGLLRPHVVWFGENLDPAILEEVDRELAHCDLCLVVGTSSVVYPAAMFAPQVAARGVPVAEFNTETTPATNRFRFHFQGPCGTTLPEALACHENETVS
UniProt P16389, sequence (whole entry, looked up): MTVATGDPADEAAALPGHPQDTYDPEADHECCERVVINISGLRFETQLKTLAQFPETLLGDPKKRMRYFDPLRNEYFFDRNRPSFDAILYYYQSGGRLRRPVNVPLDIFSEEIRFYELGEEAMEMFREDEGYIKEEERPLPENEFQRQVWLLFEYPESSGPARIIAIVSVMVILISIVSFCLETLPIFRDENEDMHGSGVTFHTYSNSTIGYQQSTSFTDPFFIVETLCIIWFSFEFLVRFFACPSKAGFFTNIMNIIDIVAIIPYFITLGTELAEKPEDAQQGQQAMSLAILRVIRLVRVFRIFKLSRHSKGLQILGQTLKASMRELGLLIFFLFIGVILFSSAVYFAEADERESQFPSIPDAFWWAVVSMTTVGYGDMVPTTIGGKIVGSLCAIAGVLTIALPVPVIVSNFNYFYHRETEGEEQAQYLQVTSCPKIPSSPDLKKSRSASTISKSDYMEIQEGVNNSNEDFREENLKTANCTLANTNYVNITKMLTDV

Under inhibition, `Cn1cnnc1Sc1c2c(c(C#N)c3nc4ccccc4n13)CCCC2` is recorded as “no inhibition” (MAOA; enzyme activity, inhibitor; 100 µM).
For `CCOC(=O)C1=CN([C@@H]2O[C@H](CO)[C@@H](O)[C@H]2O)C=CC1`, the inhibition was 2.5 fold (SIRT5 (Homo sapiens, UniProt Q9NXA8, A86S); desuccinylase activity, inhibitor; concentration not given).
For `CC(=O)C12NC(C)(C)CC1(C)C(=O)C1=C2c2c(c3c4n2C(C)(C)CC2=C4C4(CC(C)(C)NC(C)(C4)C2=O)CC3(C)C)C(=O)C(C)(C)N1` (single isomer, unassigned; (+)), the inhibition was 72.5% (KCNA2 (Homo sapiens, UniProt P16389); ion current, inhibitor, patch clamp; HEK-293T; 10 µM).
`c1ccc(-n2cc(-c3nc4ccc5[nH]ncc5c4c4c3CCCC4)cn2)cc1` has an inhibition of 9% (FLT3 ITD; enzyme activity, inhibitor, ADP detection; 0.1 µM).
`O=C(NC1CCCCC1)C(c1ccccn1)N(C(=O)CCl)c1ccc(F)c(F)c1` (racemic) gave an inhibition of 95% (GSTO1; competitive ABPP; MDA-MB-435; 1 µM, 12 h, 10% serum).
Under inhibition, `O=C(Nc1cc(Cl)ccc1O)c1nn2c(C(F)(F)F)cc(-c3cc(Br)cs3)nc2c1Br` is recorded as “inhibited” (Hepatitis A virus cellular receptor 2, part galectin-9 interaction (Homo sapiens, UniProt Q8TDQ0); galectin-9 binding, competitive ELISA; 2.5 µM).
`COC(=O)CCSc1nc2n(n1)C(c1cccc(OC)c1)C(C(=O)Nc1cncc(C)c1)=C(C)N2` (stereo not drawn) has an inhibition of 54.7% (MTOR (Homo sapiens, UniProt P42345); enzyme activity, inhibitor, TR-FRET; 10 nM).
For `O=C(Nc1ccc(Oc2ccc(F)cc2)cc1)c1cc2ccc(Cl)cc2s1`, the inhibition was no more than 52% (AGER; binding to AGE-BSA, competitive ELISA; 100 µM, 60 min).
For `O=C(Nc1ccccc1Nc1ccccc1)c1nccnc1Cl`, the inhibition was 8.16% (Succinate dehydrogenase complex; enzyme activity, double-antibody sandwich ELISA; 0.5 µM).
`C#CCCCCNC(=O)C(c1ccccn1)N(C(=O)CCl)c1cccc(F)c1` (racemic) has an inhibition of 80% (GSTO1; probe labelling, gel-based competitive ABPP; MDA-MB-435 soluble proteome; 100 nM, added: SE-Rh probe).
The inhibition of `Oc1ccc([C@H]2Oc3cc(O)cc(O)c3C[C@H]2O)cc1` is reported as 25.5% (maltase, rat; enzyme activity, inhibitor; rat intestinal brush border vesicles; 10 µM).
`O=C(NC1CCCCC1)C(c1ccccn1)N(C(=O)CCl)c1cccc(Cl)c1` (racemic) has an inhibition of 85% (GSTO1; competitive ABPP; MDA-MB-435; 1 µM, 12 h, 10% serum).
`O=C(O[C@@H]1Cc2c(O)cc(O)cc2O[C@@H]1c1cc(O)c(O)c(O)c1)c1cc(O)c(O)c(O)c1` has an inhibition of 98.7% (maltase, rat; enzyme activity, inhibitor; rat intestinal brush border vesicles; 10 µM).
With `CC[C@H](C)[C@H](NC(=O)[C@H](CCCNC(=N)N)NC(=O)[C@H](CCCCN)NC(=O)[C@@H]1CCCN1C(=O)[C@@H]1CCCN1CCCN(CC[C@H](N)C(=O)O)C[C@H]1O[C@@H](n2cnc3c(N)ncnc32)[C@H](O)[C@@H]1O)C(=O)N[C@@H](C)C(N)=O` the inhibition was less than 40% (PRMT1 (Homo sapiens, UniProt Q99873); enzyme activity, inhibitor; 33 µM).
With `O=C(O)CN(c1ccc(N(CC(=O)O)S(=O)(=O)c2ccccc2)cc1)S(=O)(=O)c1ccccc1` the inhibition was less than 50% (Kelch-like ECH-associated protein 1, Kelch domain (KEAP1, Homo sapiens, UniProt Q14145); Keap1-Nrf2 interaction, inhibitor, fluorescence polarisation; 50 µM).
The inhibition of `O=C(Nc1ccccc1Nc1ccccc1)c1cccnc1C(F)(F)F` is reported as 45.4% (Succinate dehydrogenase complex; enzyme activity, double-antibody sandwich ELISA; 8 µM).
`O=C(Nc1ccc(OCCN2CCCC2)cc1)c1cc2ccc(Cl)cc2s1` has an inhibition of no more than 89% (AGER; binding to AGE-BSA, competitive ELISA; 100 µM, 60 min).
The inhibition of `Cc1cc(-c2c[nH]nc2C(F)(F)F)nc2ccc3[nH]ncc3c12` is reported as 22% (FLT3 ITD; enzyme activity, inhibitor, ADP detection; 0.1 µM).
`N#Cc1ccc(O)c(O)c1` gave an inhibition of 4 ± 1% (lecA; binding inhibitor, fluorescence polarization; 4000 µM, 4 mM catechol, added: Cy5 galactoside tracer).
`Cc1cc(NC(=O)[C@H](O)c2cc(F)cc(F)c2)ccc1-c1cnc(N)c(C(=O)NC(C)C)c1` has an inhibition of greater than 50% (BLK (Homo sapiens, UniProt P51451); cell-free assay, competition with immobilised ligand; 1 µM).
`Cc1cc(Nc2cc(CN(C)C)cc(NC(=O)c3cccc(Nc4ccnc5ccccc45)c3)c2)nc(N)n1` gave an inhibition of greater than 50% (DNA polymerase eta (POLH, Homo sapiens, UniProt Q9Y253); enzyme activity, inhibitor; 10 µM).
For `COc1cccc2c1C(=O)c1c(O)c3c(c(O)c1C2=O)CC(O)(C(=O)CO)CC3OC1CC(NC(=O)C[C@H](N)C(=O)O)C(O)C(C)O1` (stereo partly drawn), inhibition read “inhibited” (SLC7A5 (Homo sapiens, UniProt Q01650); L-leucine uptake, inhibitor; S2 cells expressing LAT1; 100 µM, added: [3H]L-leucine 2 µM).
`O=C(Nc1ccccc1Nc1ccccc1)c1cccnc1F` has an inhibition of 6.02% (Succinate dehydrogenase complex; enzyme activity, double-antibody sandwich ELISA; 2 µM).
The inhibition of `OCc1cccc(O)c1O` is reported as 11% (lecA; ligand displacement, FP; 4 mM).
For `COc1ncccc1C(=O)Nc1ccccc1Nc1ccccc1`, the inhibition was 40% (Succinate dehydrogenase complex; enzyme activity, double-antibody sandwich ELISA; 2 µM).
`COc1ccc(NC(=O)c2cc3ccccc3s2)cc1` has an inhibition of 0% (AGER; binding to AGE-BSA, competitive ELISA; 100 µM, 60 min).
`C#CCSc1nc(Sc2nnnn2-c2ccccc2)c2nnn(Cc3ccccc3Cl)c2n1` gave an inhibition of less than 10% (MAOA; enzyme activity, inhibitor, luciferase; 1 µM).
With `CC(=O)N[C@H]1NC[C@H](C(=O)O)[C@H](O)[C@@H]1O` the inhibition was 89% (Sialidase-2 (Homo sapiens, UniProt Q9Y3R4); enzyme activity, inhibitor, fluorescence; 300 µM, pH 4).
Under inhibition, `O=C1CSC(c2cccc(Br)c2)N1c1cc(Cl)ccc1O` (stereo not drawn) is recorded as “inhibited” (ACTR2/ACTR3 (Bos taurus, UniProt A7MB62+P61157); actin polymerization rate, pyrenyl-actin; concentration not given).
With `COc1ccc(C[C@H](NC(=O)[C@H](C)NC(=O)CN2CCOCC2)C(=O)N[C@@H](Cc2ccccc2)C(=O)C2(C)CO2)cc1` (stereo in doubt) the inhibition was greater than 90% (Proteasome subunit beta type-5 (Babesia divergens, UniProt A0AAD9GDK3); proteasome activity; Babesia divergens, parasite lysate; 1 µM, added: Suc-LLVY-AMC substrate).
The inhibition of `O=[N+]([O-])c1ccc(O)c(O)c1` is reported as 37 ± 1% (lecA; binding inhibitor, fluorescence polarization; 4000 µM, 4 mM catechol, added: Cy5 galactoside tracer).
`O=C(NC1CCCCC1)C(c1cccnc1)N(C(=O)CCl)c1ccc(F)cc1` (racemic) has an inhibition of 75% (GSTO1; probe labelling, gel-based competitive ABPP; MDA-MB-435 soluble proteome; 100 nM, added: SE-Rh probe).
The inhibition of `NS(=O)(=O)c1ccc(/N=N/c2cc3ccccc3c(C(=O)O)c2O)cc1` is reported as 44.4% (GLO1; enzyme activity, inhibitor; 25 µM).
For `COc1cc(N(C(=O)c2cc3ccc(Cl)cc3s2)c2ccc(OCCN3CCCC3)cc2)cc(OC)c1OC`, the inhibition was 49% (AGER; binding to AGE-BSA, competitive ELISA; 100 µM, 60 min).
For `O=C(CCl)N(CCNC(=O)C(F)(F)F)c1ccc([N+](=O)[O-])cc1`, the inhibition was 100% (GSTO1; probe labelling, inhibitor, competitive ABPP; MDA-MB-435; 1 µM, 1 h, 10% serum).
`COc1ccc(/C=C/C(=O)N2CCN(c3ccccc3)CC2)cc1` gave an inhibition of 15.1 ± 5.4% (Agaricus bisporus tyrosinase; diphenolase activity; 500 µM, added: L-DOPA substrate).
With `Oc1ccc(CCC(O)CC(O)CCc2ccc(O)cc2)cc1` (stereo not drawn) the inhibition was 1.2 ± 2.6% (Maoa (Rattus norvegicus, UniProt P21396); enzyme activity, inhibitor; 50 µg/mL, added: serotonin substrate).
The inhibition of `Cc1nn(C)cc1-c1nc2ccc3[nH]ncc3c2c2c1CCCC2` is reported as 21% (FLT3 ITD; enzyme activity, inhibitor, ADP detection; 0.1 µM).
`CN1CC[C@H](c2c(O)cc(O)c3c(=O)cc(/C=C/c4c(Cl)cccc4Cl)oc23)[C@H](O)C1` has an inhibition of 97 ± 1.2% (Cyclin-dependent kinase 9, with cyclin T1 (CDK9, Homo sapiens, UniProt P50750); enzyme activity, inhibitor; 500 nM).
With `NS(=O)(=O)c1ccc(/N=N/c2cc3ccccc3c(C=O)c2O)cc1` the inhibition was 48.8% (GLO1; enzyme activity, inhibitor; 25 µM).
`COc1ccc(NC(=O)c2cc3ccc(Cl)cc3s2)cc1` has an inhibition of 29% (AGER; binding to AGE-BSA, competitive ELISA; 100 µM, 60 min).
The inhibition of `NS(=O)(=O)c1ccc(/N=N/c2cc3ccc(=O)oc3cc2O)cc1` is reported as 44.4% (GLO1; enzyme activity, inhibitor; 25 µM).
`COc1cc(C(=O)NC2CCC(N3CCN(CC4CCC5(CCCC5)C4)CC3)CC2)c(F)cc1Nc1ncc2c(n1)N(C1CCCC1(F)F)CC(F)(F)C(=O)N2C` (stereo not drawn) gave an inhibition of 0.61% (PDGFRA (Homo sapiens, UniProt P16234); cell-free assay, TR-FRET; 10 µM).
`O=C(O)c1ccc(/N=N/c2cc3ccccc3c(C(=O)O)c2O)cc1` has an inhibition of 44.9% (GLO1; enzyme activity, inhibitor; 25 µM).
The inhibition of `O=C(Nc1ccccc1Nc1ccccc1)c1cccnc1Br` is reported as 12.6% (Succinate dehydrogenase complex; enzyme activity, double-antibody sandwich ELISA; 0.5 µM).
